# Experimental data pooled from the literature.
# Each line is one published result; not all experiments were run side by side.
# DRD4: D(4) dopamine receptor (DRD4, Homo sapiens, UniProt P21917)
# UniProt P21917, sequence (whole entry, looked up): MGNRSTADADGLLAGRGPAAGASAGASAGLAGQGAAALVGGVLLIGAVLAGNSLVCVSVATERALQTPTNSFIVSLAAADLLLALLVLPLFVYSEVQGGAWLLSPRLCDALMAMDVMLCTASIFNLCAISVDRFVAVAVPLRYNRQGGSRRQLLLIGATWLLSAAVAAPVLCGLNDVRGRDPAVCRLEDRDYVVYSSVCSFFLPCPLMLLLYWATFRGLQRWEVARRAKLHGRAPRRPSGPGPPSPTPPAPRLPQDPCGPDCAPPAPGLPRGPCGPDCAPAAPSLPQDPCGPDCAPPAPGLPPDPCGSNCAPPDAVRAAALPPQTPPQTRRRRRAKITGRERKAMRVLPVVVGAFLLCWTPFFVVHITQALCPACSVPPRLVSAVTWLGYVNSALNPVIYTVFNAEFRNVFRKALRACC
Compound,tested on,test,test system,setting,how to read,measurement,result
Cc1ncsc1-c1ccc(C(C)NC(=O)C2CC(O)CN2C(=O)C(NC(=O)CCCCCCCCCCN2CCCC(Nc3ncc(Cl)c(Nc4ccccc4S(=O)(=O)C(C)C)n3)C2)C(C)(C)C)cc1 (stereo not drawn),22Rv1,"RNA-seq, refers to: PROSER3 mRNA",,concentration not given,baseline: DMSO,log2 fold change,-1.93
C=C(NC(=O)c1csc(-c2nc3c(cc2O)-c2nc(cs2)C(=O)NC(C(C)O)C(=O)NC(=C(C)OC)c2nc(cs2)C(=O)NC2c4nc(cs4)C(=O)NC(COC(=O)c4c5c6c(cccc6n4O)COC(=O)C(OC4CC(C)(O)C(N(C)C)C(C)O4)C2OC5)c2nc-3cs2)n1)C(N)=O (stereo not drawn),Staphylococcus epidermidis,,"MRSE-8, methicillin-resistant",,,MIC,0.0039 µg/mL
CNS(=O)(=O)Nc1nccc(Cc2c(C)c3ccc(Oc4ncccc4F)cc3oc2=O)c1F,CAL-33,cell viability,,7 days,,IC50,346 nM
COc1cc(C(=O)O)ccc1NC(=O)c1ccc(NC(=O)c2ccc(NC(=O)[C@H](Cc3c[nH]nn3)NC(=O)c3ccc(NC(=O)/C(C)=C/c4ccc(O)cc4)cc3)cc2)cc1O,Bacillus subtilis,broth microdilution,DSM 10,,,MIC,1 µg/mL
C[C@@H]1C(=O)O[C@@H](C)/C=C/C=C\[C@@H](C)[C@@H]2C=C[C@@H]3C[C@@]4(C)O[C@H]4[C@@H](C)[C@H]3[C@@H]2C(=O)C(Cl)(Cl)C1=O,Staphylococcus aureus,,MRSA clinical isolate,"resistant: OXA,CLI,ERY",,MIC,0.025 µg/mL
C=CCO/N=C(\C(=O)N[C@@H]1C(=O)N(OS(=O)(=O)O)C1(C)C)c1nsc(N)n1,Proteus mirabilis,agar dilution,"ATCC 49565, susceptible",,,MIC,0.06 µg/mL
Fc1ccc(OCC2CN(Cc3cn4nc(Cl)ccc4n3)CCC2(F)F)cc1F (stereo not drawn),DRD4,"ligand displacement, radioligand",,cell membranes,,Ki,2.57 nM
CC1(C)[C@H](NC(=O)/C(=N\OC2(C(=O)O)CC2)c2nsc(N)n2)C(=O)N1OS(=O)(=O)O,Proteus mirabilis,agar dilution,"ATCC 49565, susceptible",,,MIC,1 µg/mL
CC[C@H]1OC(=O)[C@H](C)[C@@H](OC(=O)c2ccc(N)cc2)[C@H](C)[C@@H](O[C@@H]2O[C@H](C)C[C@H](N(C)C)[C@H]2O)[C@](C)(OC)C[C@@H](C)C(=O)[C@H](C)[C@@H](O)[C@]1(C)O,Bacillus subtilis,microbial growth,DSM402,,,MIC,128 µg/mL
CC1C=CC=CC(C)C2C=CC3CC(C)(O)C(Cl)C(C)C3C2C(=O)C(Cl)(Cl)C(=O)C(C)C(=O)O1 (stereo not drawn),Staphylococcus aureus,,MSSA clinical isolate,"resistant: CIP,DAP,ERY,MXF",,MIC,0.025 µg/mL
COc1nc(C(=O)Nc2ccc(C(=O)O)nc2OC)ccc1NC(=O)c1ccc(NC(=O)[C@H](Cc2c[nH]nn2)NC(=O)c2ccc(NC(=O)/C(C)=C/c3ccc(O)cc3)cc2)cc1,Bacillus subtilis,broth microdilution,DSM 10,,,MIC,4 µg/mL
CC[C@H]1OC(=O)[C@H](C)[C@@H](OC(=O)Cc2ccc(N)cc2)[C@H](C)[C@@H](O[C@@H]2O[C@H](C)C[C@H](N(C)C)[C@H]2O)[C@](C)(OC)C[C@@H](C)C(=O)[C@H](C)[C@@H](O)[C@]1(C)O,Bacillus subtilis,microbial growth,DSM402,,,MIC,2 µg/mL
CC1(C)C(NC(=O)C(=NOC2(C(=O)O)CCC2)c2csc(N)n2)C(=O)N1OS(=O)(=O)O (stereo not drawn),Proteus mirabilis,agar dilution,"ATCC 49565, susceptible",,,MIC,≤ 0.03 µg/mL
COC1CN([C@H]2CC[C@H]([C@@]3(C)Oc4c(Cl)cc(C(=O)NCc5c(SC)cc(C)[nH]c5=O)c(C)c4O3)CC2)C1,,"RNA-seq, refers to: PTPRB","human, whole blood","dose not given, 24 h",baseline: pretreatment baseline,log2 fold change,1.01
CC1(C)[C@H](NC(=O)/C(=N\OCc2c(Cl)cccc2Cl)c2csc(N)n2)C(=O)N1OS(=O)(=O)O,Proteus mirabilis,agar dilution,"ATCC 49565, susceptible",,,MIC,0.25 µg/mL
COc1ccc(CN2CCC(F)(F)C(COc3cccc(F)c3)C2)cc1F (stereo not drawn),DRD4,"ligand displacement, radioligand",,cell membranes,,Ki,26.9 nM
CC(C)(O/N=C(\C(=O)N[C@@H]1C(=O)N(OS(=O)(=O)O)C1(C)C)c1nsc(N)n1)C(=O)O,Proteus mirabilis,agar dilution,"ATCC 49565, susceptible",,,MIC,16 µg/mL
CC[C@H]1OC(=O)[C@H](C)[C@@H](OC(=O)Cc2ccccc2[N+](=O)[O-])[C@H](C)[C@@H](O[C@@H]2O[C@H](C)C[C@H](N(C)C)[C@H]2O)[C@](C)(OC)C[C@@H](C)C(=O)[C@H](C)[C@@H](O)[C@]1(C)O,Bacillus subtilis,microbial growth,DSM402,,,MIC,1 µg/mL
CC1(C)C(NC(=O)C(=NOC2(C(=O)O)CC2)c2csc(N)n2)C(=O)N1OS(=O)(=O)O (stereo not drawn),Proteus mirabilis,agar dilution,"ATCC 49565, susceptible",,,MIC,≤ 0.03 µg/mL
O=CCNCCOn1c(=O)n(OCCNCCO)c(=O)n(OCCNCCOn2c(=O)n(OCCNCCO)c(=O)n(OCCNCCO)c2=O)c1=O,Candida tropicalis,"microbial growth, broth dilution",,,,MIC,32 µg/mL
CCCCCCC#Cc1cncc(-c2nnc(SCc3cc([N+](=O)[O-])cc([N+](=O)[O-])c3)n2C)c1,ESKAPE panel pathogens,,,,,MIC,> 64 µg/mL
CNC(C)C1CCC(N)C(OC2C(N)CC(N)C(OC3OCC(C)(O)C(NC)C3O)C2O)O1 (stereo not drawn),Gram-negative bacteria,,,seven strains,,MIC,0.91 µM
Cc1c(CN(C)C(=O)/C=C/c2cnc3c(c2)CC(N)C(=O)N3)oc2ccccc12 (stereo not drawn),Escherichia coli,broth microdilution,AR-0495,,,MIC,4 µg/mL
C=C(NC(=O)c1csc(-c2cccnc2)n1)C(=O)NC(=C)C(=O)OC,Enterococcus hirae,microbial growth,ATCC10541,,,MIC,> 20 µM
CC1(C)[C@H](NC(=O)/C(=N\OCCN)c2nsc(N)n2)C(=O)N1OS(=O)(=O)O,Proteus mirabilis,agar dilution,"ATCC 49565, susceptible",,,MIC,1 µg/mL
CN[C@H](CC(C)C)C(=O)N[C@H]1C(=O)N[C@@H](CC(N)=O)C(=O)N[C@H]2C(=O)N[C@H]3C(=O)N[C@H](C(=O)N[C@H](C(=O)O)c4cc(O)cc(O)c4-c4cc3ccc4O)[C@H](O)c3ccc(c(Cl)c3)Oc3cc2cc(c3O[C@@H]2O[C@H](CO)[C@@H](O)[C@H](O)[C@H]2O[C@H]2C[C@](C)(N)[C@H](O)[C@H](C)O2)Oc2ccc(cc2Cl)[C@H]1O,Gram-negative bacteria,,,seven strains,,MIC,43.3 µM
COc1c(NC(=O)c2ccc(NC(=O)[C@H](Cc3c[nH]nn3)NC(=O)c3ccc(NC(=O)/C(C)=C/c4ccc(O)cc4)cc3)cc2)ccc(C(=O)Nc2ccc(C(=O)O)cc2)c1O,Bacillus subtilis,broth microdilution,DSM 10,,,MIC,0.5 µg/mL
CC[C@H]1OC(=O)[C@H](C)[C@@H](OC(=O)Cc2ccc(Cl)cc2)[C@H](C)[C@@H](O[C@@H]2O[C@H](C)C[C@H](N(C)C)[C@H]2O)[C@](C)(OC)C[C@@H](C)C(=O)[C@H](C)[C@@H](O)[C@]1(C)O,Bacillus subtilis,microbial growth,DSM402,,,MIC,8 µg/mL
C=C[C@]1(C)C[C@@H](OC(=O)CSc2ccc(NC(=O)c3ccco3)cc2)[C@]2(C)[C@H](C)CC[C@]3(CCC(=O)[C@H]32)[C@@H](C)[C@@H]1O,Mycoplasma gallisepticum,,chicken lung isolates,50 mg/kg to chickens,,MIC,0.00195 µg/mL
COc1cc(C(=O)Nc2ccc(C(=O)O)c(O)c2OC)ccc1NC(=O)c1ccc(NC(=O)[C@H](Cc2c[nH]nn2)NC(=O)c2ccc(NC(=O)/C(C)=C/c3ccc(O)cc3)cc2)cc1,Bacillus subtilis,broth microdilution,DSM 10,,,MIC,1 µg/mL
Oc1cc(Cn2cc(-c3ccccc3)nn2)ccc1Oc1ccc(Cl)cc1Cl,Mycobacterium tuberculosis,,H37Rv,,,MIC,> 100 µg/mL
CC1(C)C(NC(=O)C(=NOCC(=O)N2CC3CCCC3C2C(=O)O)c2csc(N)n2)C(=O)N1OS(=O)(=O)O (stereo not drawn),Proteus mirabilis,agar dilution,"ATCC 49565, susceptible",,,MIC,0.125 µg/mL
CC[C@H]1OC(=O)[C@H](C)[C@@H](OC(=O)Cc2cccc3ccccc23)[C@H](C)[C@@H](O[C@@H]2O[C@H](C)C[C@H](N(C)C)[C@H]2O)[C@](C)(OC)C[C@@H](C)C(=O)[C@H](C)[C@@H](O)[C@]1(C)O,Bacillus subtilis,microbial growth,DSM402,,,MIC,2 µg/mL

# Some of these lines once more:
Compound,tested on,test,test system,setting,how to read,measurement,result
C=C(NC(=O)c1csc(-c2cccnc2)n1)C(=O)NC(=C)C(=O)OC,Enterococcus hirae,microbial growth,ATCC10541,,,MIC,> 20 µM
CC1(C)[C@H](NC(=O)/C(=N\OCCN)c2nsc(N)n2)C(=O)N1OS(=O)(=O)O,Proteus mirabilis,agar dilution,"ATCC 49565, susceptible",,,MIC,1 µg/mL
CN[C@H](CC(C)C)C(=O)N[C@H]1C(=O)N[C@@H](CC(N)=O)C(=O)N[C@H]2C(=O)N[C@H]3C(=O)N[C@H](C(=O)N[C@H](C(=O)O)c4cc(O)cc(O)c4-c4cc3ccc4O)[C@H](O)c3ccc(c(Cl)c3)Oc3cc2cc(c3O[C@@H]2O[C@H](CO)[C@@H](O)[C@H](O)[C@H]2O[C@H]2C[C@](C)(N)[C@H](O)[C@H](C)O2)Oc2ccc(cc2Cl)[C@H]1O,Gram-negative bacteria,,,seven strains,,MIC,43.3 µM
COc1c(NC(=O)c2ccc(NC(=O)[C@H](Cc3c[nH]nn3)NC(=O)c3ccc(NC(=O)/C(C)=C/c4ccc(O)cc4)cc3)cc2)ccc(C(=O)Nc2ccc(C(=O)O)cc2)c1O,Bacillus subtilis,broth microdilution,DSM 10,,,MIC,0.5 µg/mL
